Measured values from different studies.
Every numbered part comes from another study and shows a few of its results, in no order.

Sample 1 — method: RNA Bind-n-Seq; molecule type: RNA; matrix: in vitro; tested at: 1 µM; notes: whole 134-nt RNA, ends assumed; with: 150 mM KCl; relative to: input library; direction: higher = stronger binding
Target: Ras GTPase-activating protein-binding protein 1, RRM domain (G3BP1, Homo sapiens, UniProt Q13283)
Sequence of UniProt Q13283 (whole entry, looked up): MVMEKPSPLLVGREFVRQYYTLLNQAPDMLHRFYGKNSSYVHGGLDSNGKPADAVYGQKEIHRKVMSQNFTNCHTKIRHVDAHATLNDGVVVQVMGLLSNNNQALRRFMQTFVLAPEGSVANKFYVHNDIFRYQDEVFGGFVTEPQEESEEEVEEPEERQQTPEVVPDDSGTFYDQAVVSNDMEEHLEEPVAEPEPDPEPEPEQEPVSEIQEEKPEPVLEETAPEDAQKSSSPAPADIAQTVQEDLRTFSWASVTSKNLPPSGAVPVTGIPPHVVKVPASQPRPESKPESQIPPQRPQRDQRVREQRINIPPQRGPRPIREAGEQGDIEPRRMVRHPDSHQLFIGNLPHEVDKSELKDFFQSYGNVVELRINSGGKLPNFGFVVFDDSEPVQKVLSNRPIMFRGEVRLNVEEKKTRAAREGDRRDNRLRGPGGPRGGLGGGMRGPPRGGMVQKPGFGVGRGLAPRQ
Shared flanks, not repeated: GGGAGUUCUACAGUCCGACGAUC … UGGAAUUCUCGGGUGUCAAGG
Sequence | log2 enrichment
UAUUAAUUUGAUAUAUUUAUUAUGAUUUGUAGAGGACGUCGGUGAUGAAGGAGAAGAAGAAAAAGAAUUCAUUUCCUAUAACAUCAACAU | -0.3
UGGGAGGUGGAUUUUGUUUAUUUUUUUAGCUCAUUUCCAGGGGUGGGAAAUUUUUUUUAAUAUGUGUCAUGAAUAAAGUUGUUUUUGAAA | 1.23
UGGGAGGUGGAUUUUGUUUAUUUUUUUAGCUCAUUUCCAGGGGUGGGAAUUUUUUUUCAAUAUGUGUCAUGAAUAAAGUUGUUUUUGAAA | 1.66
UGGCCCUGGUGGCAUGCGGGGAGGAAGAGGUGGCCUCAUGGAUCGUGGUGGUCACGGUGGAAUGUUCAGAGGUGGCCGUGGUGGAGACAG | 1
ACCAUGCAGGUGGGCAUCUUUGGGAAGUGGGGCAAGGGGGGGAUAGGGAGGGGGGUAACACUUUGGGAACAGGUGGUCCCAGGUCGUCUC | 0.355

Sample 2 — method: RNAcompete; molecule type: RNA; matrix: in vitro; tested at: 20 nM; notes: 7-mer, probes averaged, single round; relative to: mean of 7-mers; direction: higher = stronger binding
Target: PABPC1L2, full length, GST fusion (mouse, UniProt A0ABA7IW68)
Residues (chain): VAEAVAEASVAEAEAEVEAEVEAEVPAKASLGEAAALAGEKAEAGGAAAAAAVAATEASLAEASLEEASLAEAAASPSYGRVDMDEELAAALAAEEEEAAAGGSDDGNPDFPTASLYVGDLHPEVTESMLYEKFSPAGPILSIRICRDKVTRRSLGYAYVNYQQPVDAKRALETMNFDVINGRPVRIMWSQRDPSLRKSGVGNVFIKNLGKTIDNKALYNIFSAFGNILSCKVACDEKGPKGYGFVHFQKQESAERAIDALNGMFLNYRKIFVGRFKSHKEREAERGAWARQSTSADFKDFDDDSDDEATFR
Sequence | 7-mer Z-score
GGAAGGC | 0.274
GUAUGCC | -0.26
UGUUCCG | -0.385
ACAGCUG | 0.0243
CUCAGAC | -0.0446

Sample 3 — method: protein binding microarray; molecule type: double-stranded DNA, one strand shown; matrix: in vitro; tested at: not given; relative to: not given; direction: higher = stronger binding
Target: Histone acetyltransferase KAT6A, winged helix 2, GST fusion (KAT6A, Homo sapiens, UniProt Q92794, residues 85-181)
Notes: 8-mer, flanks averaged, mean of 2 arrays, mostly near background
Residues (chain): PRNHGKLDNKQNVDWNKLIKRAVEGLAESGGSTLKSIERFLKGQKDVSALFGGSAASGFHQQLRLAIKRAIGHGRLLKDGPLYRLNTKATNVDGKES
Sequence | E-score
CGCAGCCA | 0.144
GTTTAAGA | -0.115
ATTGTATA | 0.0902
CACGCACA | 0.158
ACCTGTTG | -0.00958
AAGCTTGA | -0.0933

Single results of other studies
Substance | target | test | system | setting | how to read | endpoint | value
PhoQ, residues 284 288 289 292 302 303 SLSVQF | PhoP, residues 12 14 15 18 19 LHSVW (Escherichia coli, UniProt P23836) | Sort-seq, measured: YFP reporter | E. coli | PhoQ-PhoP variant library, with: 10 µM Mg2+ | relative to: high Mg2+ state, higher = stronger signaling | fold induction | 8.45

Some of these lines once more (sample 2):
Sequence | 7-mer Z-score
GUAUGCC | -0.26
UGUUCCG | -0.385
